Measured values of several laboratories.
Protocols differ between the studies behind these lines. Values joined by “and” are separate records of one study, mostly repeats; a detail may differ. ± marks the error that the study gave.

N#Cc1ccn2c(-c3ccncc3)c(-c3ccc(F)cc3)nc2c1 — log2 fold change (kinase binding, competitor, MIB/MS competition, measured: SSK2; Candida albicans cell lysate; 1 µM; relative to: DMSO): 0.0698
COC(=O)CCc1ccc(OCC(O)CNC(C)C)cc1 (stereo not drawn) — heart rate (healthy male humans; concentration not given, 5 min, together with: saline): 61.7 beats/min
Cc1cc(C)c(CNC(=O)c2cc(Cl)c3c(c2C)O[C@@](C)([C@H]2CC[C@H](N(C)C)CC2)O3)c(=O)[nH]1 — partial response rate (human relapsed/refractory NHL; dose not given, measurable baseline disease): 20%
COc1cc(/C=C/C(=O)CC(=O)/C=C/c2ccc(O)c(OC)c2)ccc1O — final body weight (rat, high-fat diet hyperlipaemia; oral, 200 mg/kg daily, 4 weeks): 469 ± 39.3 g
C[C@]12CC[C@@H]3c4ccc(O)cc4C[C@@H](CCCCCCCCC[S+]([O-])CCCC(F)(F)C(F)(F)F)[C@H]3[C@@H]1CC[C@@H]2O (stereo partly drawn) — tumour volume (female nude mouse LCC2 xenograft; 2.0 mg/kg, day 11, tamoxifen-resistant): 79.7 mm3 and 69 mm3 and 79.5 mm3 and 77.7 mm3 and 137 mm3 and 60.4 mm3 and 82 mm3
C[C@H]1C[C@H]2CSC(N)=N[C@@]2(c2nc(NC(=O)c3ccc(OC(F)F)cn3)cs2)CO1 — percent change from baseline (measured: Aβ1-40; healthy adults, plasma; 400 mg single dose, 24 h post-dose; relative to: placebo): -84.9%
COc1nnc2ccc(N3CCC(c4ccc(OCCN5CCN(C)C(=O)[C@H]5C)cc4)CC3)nn12 — patients with target lesion reduction (relapsed/refractory solid tumour or lymphoma patients; dose not given, reduction above 10%): 6.1%
N#Cc1ccc2c(c1)[C@H]1CCCN(C(=O)c3ccc4[nH]cnc4c3)[C@H]1C2 — change in HOMA-IR (human, plasma; 10 mg, day 15, 360 h; relative to: placebo and baseline): -0.8%
CC(C)NCC(O)c1ccc(O)c(O)c1 (stereo not drawn) — sarcomere length (ventricular cardiomyocytes, C57BL/6 mouse; dose not given, 0.124 s): 1.68 µm
O=C(OC(C(F)(F)F)C(F)(F)F)N1CCN(Cc2cccc(Oc3ccccc3)c2)CC1 — volume of distribution (PET blocking study; rhesus monkey, brain occipital cortex; intravenous, 0.01 mg/kg, compound pretreatment, together with: [18F]T-401 tracer): 8.8 mL/cm3
COc1ccccc1[C@H](Cn1c(=O)n(C(C)(C)C(=O)O)c(=O)c2c(C)c(-c3ncco3)sc21)OC1CCOCC1 — fractional hepatic DNL ([1-13C]acetate infusion, isotopomer analysis; overweight or obese healthy men, plasma VLDL-TG palmitate; oral, 50 mg single dose, 9 h post-dose, together with: oral fructose): 17 % new palmitate
NCC(=O)Nc1cncc(-c2nn3c(=O)cc(N4CCNCC4)nc3s2)c1 — inhibition of platelet aggregation (ADP-induced platelet aggregation, light transmission aggregometry; human stable CAD patients on aspirin, platelets ex vivo; 0.05 mg/kg, 90 min post dose, together with: 20 µM ADP; relative to: placebo difference): 24.9%
C=CCn1c(=O)c2cnc(Nc3ccc(N4CCN(C)CC4)cc3)nc2n1-c1ccc2c(n1)[C@@](O)(CC)CC2 — tumour volume difference (CB17 SCID mouse, 22Rv1 xenograft; oral, 80 mg/kg, 5 d on 2 d off ×3, day 19; relative to: vehicle): 1030 ± 72 mm3
O=C(O)c1c(-c2ccc(Cl)cc2)csc1NC(=O)c1cccc2ccccc12 — pain response latency (hot plate test; ICR mouse; intragastric, 20 mg/kg, 3 h; relative to: vehicle): no effect
CC(C)[C@H](C(=O)Nc1ccc(C(=O)NO)cc1)c1ccccc1 — tumour growth rate (volumetric MRI; human, right IAC schwannoma; dose not given, day 1512): 49.7 %/year
CN(C)C(=O)c1cc2cnc(Nc3ccc(N4CCNCC4)cn3)nc2n1C1CCCC1 — GSEA enrichment score (RNA sequencing, measured: HALLMARK_TGF_BETA_SIGNALING; MB002 tumour; concentration not given; relative to: vehicle, direction not given): -0.252
CC(C)C[C@H](NC(=O)[C@@H]1CCCN1C(=O)[C@H](Cc1ccccc1)NC(=O)CNC(=O)[C@@H]1CCCN1C(=O)[C@H](C)NC(=O)[C@H](CCCCNC(=O)CCOCCOCCNC(=O)CCOCCOCCNC(=O)CC[C@H](NC(=O)CCCCCCCCCCCCCCCCCCC(=O)O)C(=O)O)NC(=O)CNC(=O)[C@H](Cc1ccccc1)NC(=O)[C@@H](N)[C@@H](C)O)C(=O)NCC(=O)N[C@@H](CO)C(N)=O — liver to body weight ratio (mouse, CCl4 liver fibrosis; ip, 250 µg/kg daily, 4 weeks): 0.873 and 0.774 and 0.635
N#C/C(=C\C1CC1)C(=O)N1CCC[C@@H]1Cn1nc(-c2ccc(Oc3ccccc3)cc2F)c2c(N)ncnc21 — dissociation half-life (10-fold dilution, LC-MS, together with: β-mercaptoethanol): 1.05 ± 0.06 min
CC(CCc1ccc(O)cc1)NCCc1ccc(O)c(O)c1 (stereo not drawn) — heart rate change (anaesthetised instrumented rat; iv infusion, 1 µg/kg/min, 15 min, unit not given; relative to: baseline): 31 ± 12.6
C[C@@H](O)CCOC(=O)C[C@@H](C)O — metabolite level (measured: Phe; human, plasma; 60 min, log2-transformed values): 5.88 ± 0.22 µmol/L
NC(=O)c1cnc2[nH]ccc2c1N[C@@H]1[C@@H]2CC3C[C@H]1C[C@@](O)(C3)C2 — CD4+CD28+ naive T-cell change (flow cytometry; Japanese healthy men, blood; oral, 10 mg twice daily, 72 h after day 7 dose; relative to: baseline): -4.67%
CCc1c(C)nc(-c2ccc(Cl)s2)nc1Nc1ccc(CC(=O)O)cc1 — serum ALP (mice, chronic ethanol plus binge; intraperitoneal, 0.3 mg/kg daily, ethanol diet 4 weeks, dosed last two; relative to: vehicle): no effect
COc1ccc(F)cc1C(=O)NCc1ccc(-c2nn([C@@H](C)C(F)(F)F)c(N)c2C(N)=O)cc1 — patients remaining on treatment (MCL patients; dose not given): 57%
Cc1cc(-c2nnc(N)nc2-c2ccc(F)cc2)cc(Cl)n1 — GSVA score change (NanoString, measured: TH17.Medi.IO signature; human mCRPC, peripheral blood; dose not given, 2 or 4 weeks; relative to: baseline, direction not given): 0.241
C[C@@H](NC(=O)N1C(=O)[C@H](Cc2ccnc(N)c2)[C@H]1C(=O)O)C1CCCCC1 — PT AUEC (human; iv infusion, 0.6 mg/kg/h, 24 h, unit not given; relative to: baseline): 133
C[C@H](NC(=O)c1c(C(F)F)nn(C)c1Oc1cccc(C(F)(F)F)c1)c1ccc(C(=O)O)cc1 — progressive disease (irRECIST; human, advanced tumours; 750 mg; best overall response): 42.9%
N#Cc1ccc2c(-c3ccncc3)c(-c3ccc(F)cc3)nn2c1 — log2 fold change (kinase binding, competitor, MIB/MS competition, measured: CMK1; Candida albicans cell lysate; 1 µM; relative to: DMSO): 0.253
N#Cc1ccc2c(c1)[C@H]1CCCN(C(=O)c3ccc4[nH]cnc4c3)[C@H]1C2 — change from baseline (measured: Triglycerides; human; 20 mg once daily, day 28, adjusted mean; relative to: placebo): 11.5 mg/dL
CCCN1CCCC[C@H]1C(=O)Nc1c(C)cccc1C — motor block (Sprague-Dawley rat, male; sciatic nerve injection, 15 mM): 100 % MPE
Cn1cc([C@H]2C[C@H]3CSC(N)=N[C@@]3(c3ccc(F)cc3F)CO2)cn1 — brain Aβ40 level (measured: Aβx-40; wild-type mouse, brain; subcutaneous, 50 mg/kg, 9 h): 1.23 ng/g
CCN1CCN(Cc2ccc(Nc3ncc(F)c(-c4cc(F)c5nc6n(c5c4)[C@H](C)CCC6)n3)nc2)CC1 — partial response (human advanced solid tumours; 200 mg, phase Ia monotherapy RECIST 1.1): 0%
C[C@H]1O[C@@H](O[C@H]2CC[C@@]3(C)[C@@H](CC[C@]4(C)[C@@H]3C=C[C@]35OC[C@@]6(CCC(C)(C)C[C@H]63)[C@@H](O)C[C@]54C)[C@]2(C)CO)[C@H](O)[C@@H](O[C@@H]2O[C@H](CO)[C@@H](O)[C@H](O)[C@H]2O)[C@H]1O — body weight change (chronic-plus-binge ethanol mice; oral, 5 mg/kg/day for 7 d, 168 h): 0.1 g and -0.3 g and -2.2 g and 1.7 g and -1.5 g
CCN(Cc1nc2c(N)nc3cc(-c4cc[nH]n4)ccc3c2[nH]1)C(C)=O — patients with increased cells (immunohistochemistry, measured: PD-L1+ immune cells; patients with advanced solid tumours, non-injected tumour lesions; dose not given, monotherapy): 83%
CC1(C)CCC(c2ccc(Cl)cc2)=C(CN2CCN(c3ccc(C(=O)NS(=O)(=O)c4ccc(N[C@H](CCN5CCOCC5)CSc5ccccc5)c(S(=O)(=O)C(F)(F)F)c4)cc3)CC2)C1 — EC50 (cell killing, flow cytometry PI exclusion; canine blood CD21+ B cells, dog 30; 24 h): 489 nM
c1ccc(-c2n[nH]cc2-c2ccnc3ccccc23)nc1 — log2 fold change (kinase binding, competitor, MIB/MS competition, measured: PKH3; Candida albicans cell lysate; 100 nM; relative to: DMSO): 1.33
CCc1oc2ccccc2c1C(=O)c1cc(Br)c(O)c(Br)c1 — decrease in serum uric acid (mouse, acute hyperuricaemia model; 1 mg/kg): 17.3%

Some of these lines once more:
N#Cc1ccc2c(c1)[C@H]1CCCN(C(=O)c3ccc4[nH]cnc4c3)[C@H]1C2 — change in HOMA-IR (human, plasma; 10 mg, day 15, 360 h; relative to: placebo and baseline): -0.8%
CC(CCc1ccc(O)cc1)NCCc1ccc(O)c(O)c1 (stereo not drawn) — heart rate change (anaesthetised instrumented rat; iv infusion, 1 µg/kg/min, 15 min, unit not given; relative to: baseline): 31 ± 12.6
N#Cc1ccc2c(-c3ccncc3)c(-c3ccc(F)cc3)nn2c1 — log2 fold change (kinase binding, competitor, MIB/MS competition, measured: CMK1; Candida albicans cell lysate; 1 µM; relative to: DMSO): 0.253
CC(C)C[C@H](NC(=O)[C@@H]1CCCN1C(=O)[C@H](Cc1ccccc1)NC(=O)CNC(=O)[C@@H]1CCCN1C(=O)[C@H](C)NC(=O)[C@H](CCCCNC(=O)CCOCCOCCNC(=O)CCOCCOCCNC(=O)CC[C@H](NC(=O)CCCCCCCCCCCCCCCCCCC(=O)O)C(=O)O)NC(=O)CNC(=O)[C@H](Cc1ccccc1)NC(=O)[C@@H](N)[C@@H](C)O)C(=O)NCC(=O)N[C@@H](CO)C(N)=O — liver to body weight ratio (mouse, CCl4 liver fibrosis; ip, 250 µg/kg daily, 4 weeks): 0.873 and 0.774 and 0.635
